Published values pooled from the literature.
B1: PF1070 1-140 C93S (Pyrococcus furiosus, UniProt Q8U1Y4); sequence looked up; chain MPSSSKSDFSFSTLIIPQHYLRAILKVVSSSSVEVCGFLFGKENRVLKVRFIRNRLNSPVEFEMDPEEMLKALEEAEQENLEVVGIFHSHIASPPIPSGKDLEGMKRWPVIWLIVNEKGEYKAWILSEKNKISEVKIVVE
B2: irisin mature, soluble (UniProt Q8NAU1); sequence looked up; chain DSPSAPVNVTVRHLKANSAVVSWDVLEDEVVIGFAISQQKKDVRMLRFIQEVNTTTRSCALWDLEEDTEYIVHVQAISIQGQSPASEPVLFKTPREAEKMASKNKDEVTMKE
B3: GFOD1 1-390 (Homo sapiens, UniProt Q9NXC2); sequence looked up; chain MLPGVGVFGTSLTARVIIPLLKDEGFAVKALWGRTQEEAEELAKEMSVPFYTSRIDEVLLHQDVDLVCINLPPPLTRQIAVKTLGIGKNVICDRTATPLDAFRMTSAAHYYPKLMSIMGNVLRFLPAFVRMKQLIEEGYVGEPLVCEVQVHGGSLLGKKYNWSCDDLMGGGGLHSVGTYIIDLLTFLTGQKAVKVHGLLKTFVKQTDHIKGIRQITSDDFCTFQMVLEGGVCCTVTLNFNVPGEFKQDVTVVGSAGRLLAVGTDLYGQRNSAPEQELLVQDATPVSNSLLPEKAFSDIPSPYLRGTIKMMQAVRQAFQDQDDRRTWDGRPLTMAATFDDCLYALCVVDTIKRSSQTGEWQNIAIMTEEPELSPAYLISEAMRRSRMSLYC
B4: Saci_2020 (Sulfolobus acidocaldarius, UniProt Q4J7B5); chain MEKGRIIAIEGIMSSGKTTHVQSLRDYLEDRGYVVTTIGIQSSKLMADAIASVKRDIVFQRRTLFLAYVTDLADQTENLVKPSLDSGFIVIADGYVLTLEAWALTRRLEREWVEGVLSMLPKASLSISLISPPTEIMRRIIKRKGFLDPLSESVDLNVKEDTFLAYKKYVKEFQSHLKSISPNVLVTKNNVNEVNREIERLVREELKIDA
B5: CALCOCO2 1-316 (Homo sapiens, UniProt Q13137); chain MEETIKDPPTSAVLLDHCHFSQVIFNSVEKFYIPGGDVTCHYTFTQHFIPRRKDWIGIFRVGWKTTREYYTFMWVTLPIDLNNKSAKQQEVQFKAYYLPKDDEYYQFCYVDEDGVVRGASIPFQFRPENEEDILVVTTQGEVEEIEQHNKELCKENQELKDSCISLQKQNSDMQAELQKKQEELETLQSINKKLELKVKEQKDYWETELLQLKEQNQKMSSENEKMGIRVDQLQAQLSTQEKEMEKLVQGDQDKTEQLEQLKKENDHLFLSLTEQRKDQKKLEQTVEQMKQNETTAMKKQQELMDENFDLSKRLSE
B6: cfbA 1-143 S11T (Methanocaldococcus jannaschii, UniProt Q58380); chain MEALVLVGHGTRLPYSKELLVKLAEKVKERNLFPIVEIGLMEFSEPTIPQAVKKAIEQGAKRIIVVPVFLAHGIHTTRDIPRLLGLIEDNHEHHHEHSHHHHHHHHHEHEKLEIPEDVEIIYREPIGADDRIVDIIIDRAFGR
B7: CRYBB1 (Homo sapiens, UniProt P53674); sequence looked up; chain MSQAAKASASATVAVNPGPDTKGKGAPPAGTSPSPGTTLAPTTVPITSAKAAELPPGNYRLVVFELENFQGRRAEFSGECSNLADRGFDRVRSIIVSAGPWVAFEQSNFRGEMFILEKGEYPRWNTWSSSYRSDRLMSFRPIKMDAQEHKISLFEGANFKGNTIEIQGDDAPSLWVYGFSDRVGSVKVSSGTWVGYQYPGYRGYQYLLEPGDFRHWNEWGAFQPQMQSLRRLRDKQWHLEGSFPVLATEPPK
B8: human hnRNP M; sequence looked up; chain AAGVEAAAEVAATEIKMEEESGAPGVPSGNGAPGPKGEGERPAQNEKRKEKNIKRGGNRFEPYANPTKRYRAFITNIPFDVKWQSLKDLVKEKVGEVTYVELLMDAEGKSRGCAVVEFKMEESMKKAAEVLNKHSLSGRPLKVKEDPDGEHARRAMQKVMATTGGMGMGPGGPGMITIPPSILNNPNIPNEIIHALQAGRLGSTVFVANLDYKVGWKKLKEVFSMAGVVVRADILEDKDGKSRGIGTVTFEQSIEAVQAISMFNGQLLFDRPMHVKMDERALPKGDFFPPERPQQLPHGLGGIGMGLGPGGQPIDANHLNKGIGMGNIGPAGMGMEGIGFGINKMGGMEGPFGGGMENMGRFGSGMNMGRINEILSNALKRGEIIAKQGGGGGGGSVPGIERMGPGIDRLGGAGMERMGAGLGHGMDRVGSEIERMGLVMDRMGSVERMGSGIERMGPLGLDHMASSIERMGQTMERIGSGVERMGAGMGFGLERMAAPIDRVGQTIERMGSGVERMGPAIERMGLSMERMVPAGMGAGLERMGPVMDRMATGLERMGANNLERMGLERMGANSLERMGLERMGANSLERMGPAMGPALGAGIERMGLAMGGGGGASFDRAIEMERGNFGGSFAGSFGGAGGHAPGVARKACQIFVRNLPFDFTWKMLKDKFNECGHVLYADIKMENGKSKGCGVVKFESPEVAERACRMMNGMKLSGREIDVRIDRNA
B9: capsid protein residues 15-end 15-324 (Staphylococcus phage 80alpha, UniProt A4ZFB3); sequence looked up; chain ASNNVKPQVFNPDNVMMHEKKDGTLMNEFTTPILQEVMENSKIMQLGKYEPMEGTEKKFTFWADKPGAYWVGEGQKIETSKATWVNATMRAFKLGVILPVTKEFLNYTYSQFFEEMKPMIAEAFYKKFDEAGILNQGNNPFGKSIAQSIEKTNKVIKGDFTQDNIIDLEALLEDDELEANAFISKTQNRSLLRKIVDPETKERIYDRNSDSLDGLPVVNLKSSNLKRGELITGDFDKLIYGIPQLIEYKIDETAQLSTVKNEDGTPVNLFEQDMVALRATMHVALHIADDKAFAKLVPADKRTDSVPGEV
B10: clcA 1-465 C85A/H234C/L198A (Escherichia coli, UniProt P37019); chain MKTDTPSLETPQAARLRRRQLIRQLLERDKTPLAILFMAAVVGTLVGLAAVAFDKGVAWLQNQRMGALVHTADNYPLLLTVAFLASAVLAMFGYFLVRKYAPEAGGSGIPEIEGALEDQRPVRWWRVLPVKFFGGLGTLGGGMVLGREGPTVQIGGNIGRMVLDIFRLKGDEARHTLLATGAAAGLAAAFNAPLAGIAFIIEEMRPQFRYTLISIKAVFIGVIMSTIMYRIFNCEVALIDVGKLSDAPLNTLWLYLILGIIFGIFGPIFNKWVLGMQDLLHRVHGGNITKWVLMGGAIGGLCGLLGFVAPATSGGGFNLIPIATAGNFSMGMLVFIFVARVITTLLCFSSGAPGGIFAPMLALGTVLGTAFGMVAVELFPQYHLEAGTFAIAGMGALLAASIRAPLTGIILVLEMTDNYQLILPMIITGLGATLLAQFTGGKPLYSAILARTLAKQEAEQLARSK
B11: NUMA1 1-505 (Homo sapiens, UniProt Q14980); LD555 dye on C-terminal SNAP; sequence looked up; chain MTLHATRGAALLSWVNSLHVADPVEAVLQLQDCSIFIKIIDRIHGTEEGQQILKQPVSERLDFVCSFLQKNRKHPSSPECLVSAQKVLEGSELELAKMTMLLLYHSTMSSKSPRDWEQFEYKIQAELAVILKFVLDHEDGLNLNEDLENFLQKAPVPSTCSSTFPEELSPPSHQAKREIRFLELQKVASSSSGNNFLSGSPASPMGDILQTPQFQMRRLKKQLADERSNRDELELELAENRKLLTEKDAQIAMMQQRIDRLALLNEKQAASPLEPKELEELRDKNESLTMRLHETLKQCQDLKTEKSQMDRKINQLSEENGDLSFKLREFASHLQQLQDALNELTEEHSKATQEWLEKQAQLEKELSAALQDKKCLEEKNEILQGKLSQLEEHLSQLQDNPPQEKGEVLGDVLQLETLKQEAATLAANNTQLQARVEMLETERGQQEAKLLAERGHFEEEKQQLSSLITDLQSSISNLSQAKEELEQASQAHGARLTAQVASLTS
B12: ZTL 29-165 G46A/G80R (Arabidopsis thaliana, UniProt Q94BT6); sequence looked up; chain GGPIPYPVGNLLHTAPCAFVVTDAVEPDQPIIYVNTVFEMVTGYRAEEVLGRNCRFLQCRGPFAKRRHPLVDSMVVSEIRKCIDEGIEFQGELLNFRKDGSPLMNRLRLTPIYGDDDTITHIIGIQFFIETDIDLGP
B13: GDF15 mature (UniProt Q99988); sequence looked up; chain ARARNGDHCPLGPGRCCRLHTVRASLEDLGWADWVLSPREVQVTMCIGACPSQFRAANMHAQIKTSLHRLKPDTVPAPCCVPASYNPMVLIQKTDTGVSLQTYDDLLAKDCHCI
B14: lacI 1-360 D149A (Escherichia coli, UniProt P03023); chain MKPVTLYDVAEYAGVSYQTVSRVVNQASHVSAKTREKVEAAMAELNYIPNRVAQQLAGKQSLLIGVATSSLALHAPSQIVAAIKSRADQLGASVVVSMVERSGVEACKAAVHNLLAQRVSGLIINYPLDDQDAIAVEAACTNVPALFLAVSDQTPINSIIFSHEDGTRLGVEHLVALGHQQIALLAGPLSSVSARLRLAGWHKYLTRNQIQPIAEREGDWSAMSGFQQTMQMLNEGIVPTAMLVANDQMALGAMRAITESGLRVGADISVVGYDDTEDSSCYIPPLTTIKQDFRLLGQTSVDRLLQLSQGQAVKGNQLLPVSLVKRKTTLAPNTQTASPRALADSLMQLARQVSRLESGQ
B15: GajA 1-578 (Bacillus cereus, UniProt J8H9C1); chain MKFSNITIKNFRNFEKVNINLDNKNVIFGMNDIGKTNFLYALRFLLDKEIRKFGFNKSDYHKHDTSKKIEIILTLDLSNYEKDEDTKKLISVVKGARTSANADVFYIALESKYDDKELYGNIILKWGSELDNLIDIPGRGNINALDNVFKVIYINPLVDLDKLFAQNKKYIFEESQGNESDEGILNNIKSLTDQVNQQIGEMTIIKGFQQEITSEYRSLKKEEVSIELKSEMAIKGFFSDIIPYIKKDGDSNYYPTSGDGRRKMLSYSIYNYLAKKKYEDKIVIYLIEEPEISLHRSMQIALSKQLFEQSTYKYFFLSTHSPELLYEMDNTRLIRVHSTEKVVCSSHMYNVEEAYGSVKKKLNKALSSALFAERVLLIEGPSEKILFEKVLDEVEPEYELNGGFLLEVGGTYFNHYVCTLNDLGITHIIKTDNDLKSKKGKKGVYELLGLNRCLNLLGRENLDEITIDIPEDIKGKKKKERLNERKKEIFKQYKNEVGEFLGERIYLSEIDLENDLYSAIGESMKRIFENEDPVHYLQKSKLFNMVELVNNLSTKDCFDVFEHEKFACLKELVGSDRG
B16: Ahcy 1-432 (Drosophila melanogaster, UniProt Q27580); chain MSKPSYKVADISLAEWGRKAIIIAENEMPGLMACRKKYGPSKPLKGARITGCLHMTVQTAVLIETLVELGAQVQWSSCNIFSTQDNAAAAIAATGVPVYAWKGETDEEYMWCIEQTLVFPDGQPLNMILDDGGDLTNLVHEKFPQYLKNIKGLSEETTTGVHNLYKMFKEGRLGVPAINVNDSVTKSKFDNLYGCRESLIDGIKRATDVMIAGKVCCVAGYGDVGKGCAQALKGFGGRVIVTEVDPINALQAAMEGYEVTTMEEASKEASIFVTTTGCRDIITSVHLQQMPDDAIVCNIGHFDIEIDVDWLNANAKEKVNVKPQVDRYTMQSGKHIILLAEGRLVNLGCAHGHPSFVMSNSFTNQVLAQIELWTKSDKYAVGVHVLPKILDEEVASLHLEKLGVKLTKLTEKQATYLGVSQTGPFKPDHYRY
Chain of UniProt Q9BZE9 (whole entry, looked up): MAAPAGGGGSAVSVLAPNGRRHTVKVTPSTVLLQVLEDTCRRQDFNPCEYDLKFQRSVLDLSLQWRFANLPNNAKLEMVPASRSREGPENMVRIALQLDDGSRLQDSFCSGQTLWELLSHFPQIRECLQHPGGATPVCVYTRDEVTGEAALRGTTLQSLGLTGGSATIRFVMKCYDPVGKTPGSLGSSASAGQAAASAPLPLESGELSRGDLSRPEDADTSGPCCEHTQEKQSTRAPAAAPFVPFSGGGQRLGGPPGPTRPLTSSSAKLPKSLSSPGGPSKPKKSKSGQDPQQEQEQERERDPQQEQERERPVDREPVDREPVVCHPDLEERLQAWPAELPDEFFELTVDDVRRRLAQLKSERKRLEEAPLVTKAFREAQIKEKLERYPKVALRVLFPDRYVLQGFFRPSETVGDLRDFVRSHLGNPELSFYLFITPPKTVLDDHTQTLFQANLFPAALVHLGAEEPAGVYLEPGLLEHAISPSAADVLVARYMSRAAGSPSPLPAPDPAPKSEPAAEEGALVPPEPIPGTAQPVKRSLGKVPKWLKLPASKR
Chain of UniProt P26368 (whole entry, looked up): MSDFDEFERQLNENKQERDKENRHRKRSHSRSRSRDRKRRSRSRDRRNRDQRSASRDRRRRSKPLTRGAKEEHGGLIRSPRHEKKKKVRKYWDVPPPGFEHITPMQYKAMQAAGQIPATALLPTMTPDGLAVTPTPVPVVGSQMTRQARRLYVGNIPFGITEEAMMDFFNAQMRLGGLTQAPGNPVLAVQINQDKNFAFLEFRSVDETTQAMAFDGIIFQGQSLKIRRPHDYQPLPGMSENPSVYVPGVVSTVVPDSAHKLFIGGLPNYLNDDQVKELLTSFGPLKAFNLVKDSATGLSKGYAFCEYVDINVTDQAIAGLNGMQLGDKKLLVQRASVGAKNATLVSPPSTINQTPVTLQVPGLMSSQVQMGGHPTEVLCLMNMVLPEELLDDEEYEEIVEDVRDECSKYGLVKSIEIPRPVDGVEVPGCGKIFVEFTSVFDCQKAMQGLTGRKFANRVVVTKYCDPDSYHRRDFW

Substance | tested on | test | test system | conditions | scale | measurement | value
B1 (PF1070 1-140 C93S) | itself | SEC |  |  |  | subunits per oligomer | 2
B2 (irisin mature, soluble) | itself | SEC |  |  |  | subunits per oligomer | 2
human MSH6 | CYB5R4 knockout human cells | PP4 interaction, 3xFLAG-PP4C IP-MS |  | concentration not given | baseline: CYB5R4 KO over parental | log2 fold change | -3.14
B3 (GFOD1 1-390) | itself | SEC |  |  |  | subunits per oligomer | 2
B4 (Saci_2020) | itself | SEC |  |  |  | subunits per oligomer | 4
B5 (CALCOCO2 1-316) | itself | AUC (sedimentation velocity) |  |  |  | subunits per oligomer | 2
ASPSCR1, Alexa Fluor 488 label (Homo sapiens, UniProt Q9BZE9) | itself | AUC |  |  |  | subunits per oligomer | 2
B6 (cfbA 1-143 S11T) | itself | SEC |  |  |  | subunits per oligomer | 2
B7 (CRYBB1) | itself | native MS |  | abundances relative to monomer |  | subunits per oligomer | 2
B8 (human hnRNP M) | CYB5R4 knockout human cells | PP4 interaction, 3xFLAG-PP4C IP-MS |  | concentration not given | baseline: CYB5R4 KO over parental | log2 fold change | 0.9
B9 | itself | cryo-EM |  |  |  | subunits per oligomer | 240
B10 (clcA 1-465 C85A/H234C/L198A) | itself | SEC |  |  |  | subunits per oligomer | 2
B11 (NUMA1 1-505) | itself | mass photometry |  |  |  | subunits per oligomer | 2
B12 (ZTL 29-165 G46A/G80R) | itself | SEC-SAXS |  |  |  | subunits per oligomer | 2
B13 (GDF15 mature) | itself | AUC |  |  |  | subunits per oligomer | 2
ACUUUUAAA (ssRNA) | U2AF2 148-342 (Homo sapiens, UniProt P26368) | sequencing of bound RNA | RNA | motif only |  | Kd | 1.25 µM
APVDSMLKDMATIILSTFLLIGWVAFIITYPLSMH (IRE1α 435-469) | itself | SDS-PAGE | peptide |  |  | subunits per oligomer | 4
B14 (lacI 1-360 D149A) | itself | SEC |  |  |  | subunits per oligomer | 4
B15 (GajA 1-578) | itself | cryo-EM |  | D2 symmetry, GajA alone |  | subunits per oligomer | 4
B16 (Ahcy 1-432) | itself | crystal structure |  |  |  | subunits per oligomer | 4

For quick reference, copied from above:
Substance | tested on | test | test system | conditions | scale | measurement | value
B16 (Ahcy 1-432) | itself | crystal structure |  |  |  | subunits per oligomer | 4
ASPSCR1, Alexa Fluor 488 label (Homo sapiens, UniProt Q9BZE9) | itself | AUC |  |  |  | subunits per oligomer | 2
